Experimental data pooled from the literature.
Technique: steady-state kinetics
B1: enzyme (Myxococcus xanthus, UniProt Q1DB04); chain MSFINYSSREINCKIVYYGPGLCGKTTNLQYIYNKTAAETKGKLISLSTETDRTLFFDFLPLSLGEIRGFKTRFHLYTVPGQVFYDASRKLILKGVDGVVFVADSQIERMEANMESLENLRINLAEQGYDLNKIPYVIQYNKRDLPNAVTVEEMRKALNHRNIPEYQAVAPTGVGVFDTLKAVAKLVLTELKKGG
B2: UGT1A7 (Homo sapiens, UniProt Q9HAW7); chain GKLLVVPMDGSHWFTMQSVVEKLILRGHEVVVVMPEVSWQLGRSLNCTVKTYSTSYTLEDQDREFMVFADARWTAPLRSAFSLLTSSSNGIFDLFFSNCRSLFNDRKLVEYLKESCFDAVFLDPFDACGLIVAKYFSLPSVVFARGIFCHYLEEGAQCPAPLSYVPRLLLGFSDAMTFKERVWNHIMHLEEHLFCPYFFKNVLEIASEILQTPVTAYDLYSHTSIWLLRTDFVLEYPKPVMPNMIFIGGINCHQGKPVPMEFEAYINASGEHGIVVFSLGSMVSEIPEKKAMAIADALGKIPQTVLWRYTGTRPSNLANNTILVKWLPQNDLLGHPMTRAFITHAGSHGVYESICNGVPMVMMPLFGDQMDNAKRMETKGAGVTLNVLEMTSEDLENALKAVINDKSYKENIMRLSSLHKDRPVEPLDLAVFWVEFVMRHKGAPHLRPAAHDLTWYQYHSLDVIGFLLAVVLTVAFITFKCCAYGYRKCLGKKGRVKKAHKSKTH
B3: enzyme Y243A (Arabidopsis thaliana, UniProt Q9LJK1); chain EKCQEWLERVDSVTYSRDFTKDPIFISGSNKDFKSCSVDCVMGFTSDKKPDAAFGLSHQPGTLSIIRSMESAQYYQENNLAQARRKGYDIVMTTSLSSDVPVGYFSWAEYDIMAPVQPKTEKALAAAFISNCAARNFRLQALEALMKTNVKIDSAGGCHRNRDGSVEKVEALKHYKFSLAFENTNEEDYVTEKFFQSLVAGSVPVVVGAPNIEEFAPSPDSFLHIKQMDDVKAVAKKMKYLADNPDAYNQTLRWKHEGPSDSFKALIDMAAVHSSCRLCIFVATRIREQEEKSPEFKRRPCKCTRGSETVYHLYVRERGRFDMESIFLKDGNLTLEALESAVLAKFMSLRYEPIWKKERPASLRGDGKLRVHGIYPIGLTQRQALYNFKFEGNSSLSTHIQRNPCPKFEVVFV
B4: enzyme (Equus caballus, UniProt P00327); chain STAGKVIKCKAAVLWEEKKPFSIEEVEVAPPKAHEVRIKMVATGICRSDDHVVSGTLVTPLPVIAGHEAAGIVESIGEGVTTVRPGDKVIPLFTPQCGKCRVCKHPEGNFCLKNDLSMPRGTMQDGTSRFTCRGKPIHHFLGTSTFSQYTVVDEISVAKIDAASPLEKVCLIGCGFSTGYGSAVKVAKVTQGSTCAVFGLGGVGLSVIMGCKAAGAARIIGVDINKDKFAKAKEVGATECVNPQDYKKPIQEVLTEMSNGGVDFSFEVIGRLDTMVTALSCCQEAYGVSVIVGVPPDSQNLSMNPMLLLSGRTWKGAIFGGFKSKDSVPKLVADFMAKKFALDPLITHVLPFEKINEGFDLLRSGESIRTILTF
B5: enzyme (Pseudomonas putida, UniProt Q88KZ0); chain MWKVPVTQKPDQCLGEWIDREALAEAMIPLIGQLYRNNNVVSSIYGRSLINRSVISILKAHRFARHRQTDETELSVHETFPLLKAMSELKLGAASVDLGKLANKFKQEGNGRTAEQFVREELADVVGQQNASARKGTDVVLYGFGRIGRLLARILIEKTGGGDGLRLRAIVVRKGAENDLVKRASLLRRDSVHGPFDGTITIDEANNTITANGNLIQVIYAKSPSEVDYTQYGIDNALIVDNTGVWRDADGLGQHLACPGAARVILTAPGKGALKNIVHGINHGDITADDKIISAASCTTNAIVPVLKAINDQYGIVNGHVETVHSFTNDQNLIDNFHKGSRRGRAAPLNMVITETGAATAAAKALPVLKGKLTGNAIRVPTPNVSMAILNLNLEKATTRDEINEYLRQTAMHSELHKQIDYVASQEVVSTDFVGSRHAGVVDAEATIANDNRVVLYVWYDNEFGYSCQVVRVMEDMAGVNPPAFPR
B6: enzyme (Bacteroides ovatus, UniProt A0ABU3IP51); chain ESITSPDGQLKLNFSVNMQGEPVYELSYKGKEVIKPSKLGLELKNDPGLINGFTLADIKTSAFDETWEPVWGEVKSIRNHYNEMAVTLNQKAQDRNLIICFRLYNDGLGFRYEFPQQKNLNYFVIKEEHSQFAMAGDHTAFWIPGDYDTQEYDYTESKLSEIRGLLQGAITPNASQTPFSPTGVQTSLQMKTADGLYINLHEAALVDYSCMHLNLDDQNLIFESWLTPDAKGDKGYMQTPCRSPWRTVIVSDDARDILASKLTLNLNEPCAYEDVSWIKPVKYIGVWWEMITGKSSWSYTDDVYSVKLGQTDYSQTKPSGRHAANNDKVKRYIDFASEHGFDQILVEGWNEGWEDWFGNSKDYVFDFVTPYPDFDVKMLNAYAKEKGVKLMMHHETSASVRNYERHLDKAYQFMIDNGYNAVKSGYVGNIIPRGEHHYGQWMNNHYLYAVEKAAEYKICVNAHEATRPTGLCRTYPNLIGNESARGTEYEAFAGNKPFHTTLLPFTRQIGGPMDYTPGIFDTKLSFLSGDHSFVRTTLAKQLALYVTMYSPLQMAADLPESYERHMDAFQFIKDVVVDWDDSKYLEAEPGDYITVARKAKGTDNWFVGGITDENPRTSAFTLDFLEPGKQYVATLYADGKEADFEKNPTSYQIKKGLVTNKNKMSVKLARSGGFAVSLIEATPADLKTIKKWK

With `RPT2 (Arabidopsis thaliana, UniProt Q682S0)` the Km was 34700 µM (Nc1nc2c(ncn2[C@@H]2O[C@H](COP(=O)(O)OP(=O)(O)OP(=O)(O)O)[C@@H](O)[C@H]2O)c(=O)[nH]1; pH 7.5, 30 °C).
With `B1 (enzyme)` the Km was 1.05 µM (Nc1nc2c(ncn2[C@@H]2O[C@H](COP(=O)(O)OP(=O)(O)OP(=O)(O)O)[C@@H](O)[C@H]2O)c(=O)[nH]1; pH 7.4, apparent, together with: MglA 2 µM, MglB 4 µM).
With `B2 (UGT1A7)` the Km was 22.4 µM (CC(C)=CCc1cc2c(cc1O)O[C@H](c1ccc(O)cc1)CC2=O; pH 7.4).
`PYCR2 (Homo sapiens, UniProt Q96C36)` has a Km of 298 µM (NC(=O)C1=CN([C@@H]2O[C@H](COP(=O)(O)OP(=O)(O)OC[C@H]3O[C@@H](n4cnc5c(N)ncnc54)[C@H](O)[C@@H]3O)[C@@H](O)[C@H]2O)C=CC1; pH 7.5, 37 °C, apparent, cofactor varied, together with: DL-P5C 5000 µM).
For `enzyme (Streptomyces avermitilis, UniProt Q82IV1)`, the Km was 0.125 µM (CC(C)=CCC/C(C)=C/CC/C(C)=C/CO[P@@](=O)(O)OP(=O)(O)O; pH 7, 30 °C, refolded from inclusion bodies, together with: Mg2+).
With `enzyme (Acinetobacter baumannii, UniProt A0A5P1UDB1)` the Km was 133 µM (O=C(O)c1ccc(F)cc1O; pH 7.5, 37 °C, apparent).
`acsA (Pseudomonas chlororaphis, UniProt Q5CD72)` has a Km of 2000 µM (O=C(O)CCC(F)(F)F; pH 7).
With `bcp (Escherichia coli, UniProt P0AE52)` the Km was 99.5 µM (CC(C)(OO)c1ccccc1; pH 7, 25 °C, apparent).
`enzyme (Trypanosoma brucei, UniProt Q9GV41)` has a Km of 0.8 µM (O=Cc1ccc([N+](=O)[O-])cc1; pH 7, 37 °C, together with: NADPH 100 µM).
With `B3 (enzyme Y243A)` the Km was 240 µM (C[C@@H]1O[C@H](OP(=O)(O)OP(=O)(O)OC[C@H]2O[C@@H](n3cnc4c(=O)[nH]c(N)nc43)[C@H](O)[C@@H]2O)[C@@H](O)[C@H](O)[C@@H]1O; pH 6.5, 30 °C).
`B4 (enzyme)` gave a Km of 127 µM (NC(=O)c1ccc[n+]([C@@H]2O[C@H](COP(=O)(O)OP(=O)(O)OC[C@H]3O[C@@H](n4cnc5c(N)ncnc54)[C@H](OP(=O)(O)O)[C@@H]3O)[C@@H](O)[C@H]2O)c1; pH 7, 30 °C, cofactor varied).
`B5 (enzyme)` gave a Km of 780 µM (O=C[C@H](O)COP(=O)(O)O; together with: NADP+).
`B6 (enzyme)` gave a Km of 88 µM (O=[N+]([O-])c1ccc(O[C@H]2O[C@H](CO)[C@@H](O)[C@H](O)[C@H]2O)cc1; pH 6.6).
`enzyme (Homo sapiens, UniProt Q08623)` has a Km of 2.1 µM (O=c1[nH]cc([C@@H]2O[C@H](COP(=O)(O)O)[C@@H](O)[C@H]2O)c(=O)[nH]1; pH 7, 25 °C).
For `gdh N192L/N97F (Bacillus subtilis)`, the Km was 250 µM (NC(=O)c1ccc[n+]([C@@H]2O[C@H](COP(=O)(O)OP(=O)(O)OC[C@H]3O[C@@H](n4cnc5c(N)ncnc54)[C@H](O)[C@@H]3O)[C@@H](O)[C@H]2O)c1; pH 7, 50 °C).
`enzyme (Oryza sativa, UniProt Q6ZGQ4)` gave a Km of 650 µM (O=[N+]([O-])c1ccc(O[C@@H]2OC[C@@H](O)[C@H](O)[C@H]2O)cc1; pH 4, 40 °C, apparent).

A few entries again:
For `enzyme (Streptomyces avermitilis, UniProt Q82IV1)`, the Km was 0.125 µM (CC(C)=CCC/C(C)=C/CC/C(C)=C/CO[P@@](=O)(O)OP(=O)(O)O; pH 7, 30 °C, refolded from inclusion bodies, together with: Mg2+).
